Experimental data from different studies.
Numbered parts are unrelated; each lists some results of a single study. Changes are numbered by the printed parent chain.

Study 1 — method: aptamer microarray, sandwich; form: DNA with 2'F-ANA; sample: in vitro; tested at: 200 nM; with: Cy3 exosite-II aptamer, 400 nM; reading: higher = stronger binding; oligonucleotide: GGTTGGTGTGGTTGG
Target: Prothrombin, mature alpha-thrombin (F2, Homo sapiens, UniProt P00734)
Setting: whole 15-mer aptamer, many near background
Modification	mean fluorescence intensity [a.u.]
2'F-ANA at 2 3 5 10 12 14	68.1
2'F-ANA at 1 2 3 4 6 9 10 12 13 14	55.7
2'F-ANA at 5 7 8 9 12 13 14	45.1
2'F-ANA at 1 3 4 6 9 10 11 12 13 14	55
2'F-ANA at 1 3 4 6 7 10 11 13 14 15	53.8
2'F-ANA at 2 3 4 6 7 8 9 11 12 13 14	249
2'F-ANA at 4 5 10 14	79.4
2'F-ANA at 6 7 9 10 11 12 14 15	104
2'F-ANA at 2 3 4 5 6 7 8 9 12	224
2'F-ANA at 1 2 3 4 5 6 7 10 11 12 13 15	50.7
2'F-ANA at 1 2 3 5 7 10 12 15	48.5
2'F-ANA at 1 3 4 5 8 10 11 12 13 14	45.4
2'F-ANA at 2 3 4 5 6 11 13 14 15	71.3
2'F-ANA at 2 4 6 8 11	259
2'F-ANA at 2 3 4 6 10 12 13 14	158
2'F-ANA at 1 2 4 7 11 12 13 14 15	57.6
2'F-ANA at 2 3 4 5 9 10 11 12 13 14 15	50.1
2'F-ANA at 1 2 5 6 8 9 10 12 13	49.6

Study 2 — target: CCNE1, cyclin fold, Cln2 fusion (human); method: yeast growth competition, sequencing; sample: yeast; setting: weak parent motif; reference: not given; reading: higher = stronger binding
Starting sequence: PKN2 docking peptide (human); VSAVQKLDFSDTM
Change	normalised enrichment score
VSAVQKLDFTDTM [S10T]	0.5
VSAVQKLRFSDTM [D8R]	-0.181
VDAVQKLDFSDTM [S2D]	-0.222
VSAVQWLDFSDTM [K6W]	1.57
VSAVQLLDFSDTM [K6L]	0.494
VNAVQKLDFSDTM [S2N]	0.649
VSAVQDLDFSDTM [K6D]	0.0324
VSAVQKLDFSDVM [T12V]	0.766
VSAAQKLDFSDTM [V4A]	0.192
VSAVQKLDFSDLM [T12L]	1.18
VSAVQNLDFSDTM [K6N]	0.828
VSAVQKLWFSDTM [D8W]	0.761
VSAVQKLDFSDTR [M13R]	0.814
ESAVQKLDFSDTM [V1E]	0.561
VSAVQKLDFSDTL [M13L]	0.572
GSAVQKLDFSDTM [V1G]	0.886
VSAVQGLDFSDTM [K6G]	0.163
KSAVQKLDFSDTM [V1K]	0.421
VSAVQKLDFFDTM [S10F]	0.571
VSAVQKLIFSDTM [D8I]	0.86
VSAEQKLDFSDTM [V4E]	0.018
VSAVQKLDFSDTA [M13A]	0.545
ISAVQKLDFSDTM [V1I]	-0.201
VSAVQKLDTSDTM [F9T]	-0.0895
VSSVQKLDFSDTM [A3S]	0.379

Study 3 — method: DHFR PCA, deep sequencing; sample: yeast; with: (+)-ABA 200 µM; reference: wild-type fitted maximum; reading: higher = stronger binding
Target: ABI1, truncated, D143A, DHFR fusion (Arabidopsis thaliana)
Setting: methotrexate growth selection, single substitutions
Starting sequence: PYL1, truncated, DHFR fusion (Arabidopsis thaliana); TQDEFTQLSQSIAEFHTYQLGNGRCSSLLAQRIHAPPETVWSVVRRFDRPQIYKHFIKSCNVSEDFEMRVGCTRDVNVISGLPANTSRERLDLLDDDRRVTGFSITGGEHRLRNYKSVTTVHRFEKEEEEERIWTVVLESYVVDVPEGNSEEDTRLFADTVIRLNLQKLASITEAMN; partner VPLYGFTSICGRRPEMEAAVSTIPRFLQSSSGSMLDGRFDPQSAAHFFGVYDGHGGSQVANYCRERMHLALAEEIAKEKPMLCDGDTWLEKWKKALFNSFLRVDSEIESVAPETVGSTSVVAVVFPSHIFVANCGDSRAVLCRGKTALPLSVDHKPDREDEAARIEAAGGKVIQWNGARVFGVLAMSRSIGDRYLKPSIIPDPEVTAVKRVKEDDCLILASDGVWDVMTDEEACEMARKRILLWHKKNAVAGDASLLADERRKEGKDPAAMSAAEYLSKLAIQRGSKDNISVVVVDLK
Change	relative binding score
T154D	-15.8%
Q10A	94.5%
R113I	106%
P146C	66.8%
R46T	83.3%
R24V	93.5%
F66E	91.7%
R155S	71.8%
T106P	15.9%
D3N	93%
E109D	114%
Q51N	94.7%
R45D	-17.1%
L29Q	91.5%
T106F	106%
R113L	97.9%
R90Y	59.8%
E89V	9.46%
Y53H	92.5%
S87E	-14.1%
R46N	76.9%
T135V	61.6%

Study 4 — target: UBE2B UBC core domain (UniProt P63146); method: yeast two-hybrid; sample: yeast; setting: mostly zero background; reference: not given; reading: higher = stronger interaction
Sequence of UniProt P63146 (whole entry, looked up): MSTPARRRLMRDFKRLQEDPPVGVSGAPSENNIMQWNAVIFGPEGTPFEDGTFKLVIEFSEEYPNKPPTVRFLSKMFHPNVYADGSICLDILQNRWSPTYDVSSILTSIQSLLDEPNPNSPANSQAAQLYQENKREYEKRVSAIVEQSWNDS
B1: ZNF598 RING domain (UniProt Q86UK7); chain AAAPERGGGSCVLCCGDLEATALGRCDHPVCYRCSTKMRVLCEQRYCAVCREELRQVVFGK
B2: RNF25 RING domain (UniProt Q96BH1); chain LTDNNIPHGQCVICLYGFQEKEAFTKTPCYHYFHCHCLARYIQHMEQELKAQGQEQEQERQHATTKQKAVGVQCPVCREPLVYDLASL
B3: PHF21A RING domain (UniProt Q96BD5); chain SPTSTDGDIHEDFCSVCRKSGQLLMCDTCSRVYHLDCLDPPLKTIPKGMWICPRCQDQMLKKEEAIPW
B4: MID1 RING domain (UniProt O15344); chain METLESELTCPICLELFEDPLLLPCAHSLCFNCAHRILVSHCATNESVESITAFQCPTCRHVITLSQRGL
B5: TRIM63 RING domain (UniProt Q969Q1); chain PMENLEKQLICPICLEMFTKPVVILPCQHNLCRKCANDIFQAANPYWTSRGSSVSMSGGRFRCPTCRHEVIMDRHGV
B6: TRIM72 RING domain (UniProt Q6ZMU5); chain APGLLHQELSCPLCLQLFDAPVTAECGHSFCRACLGRVAGEPAADGTVLCPCCQAPTRPQALST
Sequence	lacZ reporter activity
B1 (ZNF598 RING domain)	0
FPEHFVKSISCQICEHILADPVETNCKHVFCRVCILRCLKVMGSYCPSCRYPCFPTDLES (RAG1 RING domain (UniProt P15918))	0
B2 (RNF25 RING domain)	0
PEELQAMDNVCIICREEMVTGAKRLPCNHIFHTSCLRSWFQRQQTCPTCRMDVLRASLPA (SYVN1 RING domain (UniProt Q86TM6))	0
B3 (PHF21A RING domain)	0
QLQDIKEQTMCPVCLDRLKNMIFLCGHGTCQLCGDRMSECPICRKAIERRILLY (MIB1 RING domain (UniProt Q86YT6))	0
B4 (MID1 RING domain)	0
DDENSDNSNECVVCLSDLRDTLILPCRHLCLCTSCADTLRYQANNCPICRLPFRALLQIR (MGRN1 RING domain (UniProt O60291))	0
KTLSRFGIQPCSICLGDAKDPVCLPCDHVHCLRCLRAWFASEQMICPYCLTALPDEFSPA (RNF213 RING domain (UniProt Q63HN8))	0
B5 (TRIM63 RING domain)	0
B6 (TRIM72 RING domain)	0
VTLSLTLPITCHICLGKVRQPVICINNHVFCSICIDLWLKNNSQCPACRVPITPENPCK (OBI1 RING domain (UniProt Q5W0B1))	0
FASPPDSNFVCSVCHGVLKRPARLPCSHIFCKKCILRWLARQKTCPCCRKEVKRKKVVH (RNF151 RING domain (UniProt Q2KHN1))	0

Repeated from above (study 1):
Modification	mean fluorescence intensity [a.u.]
2'F-ANA at 1 2 3 4 6 9 10 12 13 14	55.7
2'F-ANA at 2 3 4 5 6 11 13 14 15	71.3
2'F-ANA at 2 3 4 5 6 7 8 9 12	224
2'F-ANA at 1 2 5 6 8 9 10 12 13	49.6
2'F-ANA at 2 4 6 8 11	259
